Measurements collected from several papers.
Lines come from different studies, so protocols differ.

N#Cc1cccc(/C=C/C(=O)c2ccc(O)cc2)c1
cytotoxicity (patient-derived glioblastoma cells; Alamar Blue; concentration not given): active

CCCCn1cc(C(=O)O)c(=O)c2cc(F)c3[nH]nnc3c21
IC50 (SW-620; cell growth or viability, SRB): 73.7 µM

C=C(c1ncc(C(=O)O)cn1)c1cc2c(cc1C)C(C)(C)CCC2(C)C
lowest effective concentration (TK6; cytotoxicity, GreenScreen; without S9): 6.64 µg/mL

C=CC(=C)CC[C@]1(C)[C@H](C)C[C@H](OC(=O)CCCCCCC)[C@@]23C(=C[C@H](OC(C)=O)C[C@@H]12)[C@@H](OC(C)=O)O[C@H]3OC(C)=O
IC50 (KB-VIN (P-gp-overexpressing); cell growth, SRB): 5.03 µM

C=C1CC[C@@H]2Cc3c(O)c(C(=O)/C=C/c4ccccc4)c(OC)c(C)c3O[C@@]2(C)CC[C@@H]2[C@@H]1CC2(C)C
CC50 (HEp-2; cell growth or viability): > 50 µM

COC(=O)c1ccc(CN2CCC(Nc3nc(Oc4c(C)cc(C#N)cc4C)c4ccccc4n3)CC2)cc1
CC50 (TZM-bl; cell growth or viability, XTT): > 0.24 µM

CCC(=C(c1ccc(O)cc1)c1ccc(OCCN(C)CCOCCOCCOCCOCCOCCOCCOCCOCCOCCOCCOCCN(C)CCOc2ccc(C(=C(CC)c3ccccc3)c3ccc(O)cc3)cc2)cc1)c1ccccc1 (mixture of isomers)
cell density (U2OS expressing ERβ; 10 µM, Z-Z:Z-E:E-E 1:2:1 isomer mix): 6%

COc1ccc(NC(=O)N2CCCN3CCC(c4ccc(C#Cc5ccccc5)cc4)C3C2)cc1 (stereo not drawn)
efflux ratio (MDCK-MDR1; reference: B-A over A-B): 2.84

Nc1ncnc2c1ncn2[C@@H]1O[C@H](CO)[C@@H](O)[C@H]1F
CC50 ratio (SNB-78; cytotoxicity, sulforhodamine B; 11 days; reference: glucose medium over galactose medium): 2 to 10 fold

OC[C@H]1O[C@@H](Oc2ccc(O)cc2)[C@H](O)[C@@H](O)[C@@H]1O
cytotoxicity (B16-F10; CCK-8; 200 µM, 72 h): not toxic

COc1cc(CNC(=O)C[C@H](C)CCC=C(C)C)ccc1OCc1cn(-c2ccc(Br)cc2)nn1
growth percent (MDA-MB-468 breast cancer cells; SRB; 10 µM, 48 h): 46.7%

CC/C=C\C/C=C\C/C=C\C/C=C\C/C=C\C/C=C\CCC(=O)OC(CO)COP(=O)(O)OCCN (stereo not drawn)
Papp (human brain-like endothelial cell monolayer; LC-MS; in vitro BBB model; 10 µM, 180 min, pH 7.4): 75 ×10⁻⁶ cm/s

CC(=O)O[C@@H]1[C@@H](OC(C)=O)[C@H](Sc2sc(C(=O)c3ccc(Cl)cc3)c(N)c2-c2nc3ccccc3s2)OC[C@H]1OC(C)=O
maximum non-toxic concentration (HEp-2; cytotoxicity; 72 h): 80 µg/mL

c1ccc(CN2CCNCCN(Cc3ccccc3)CCNCC2)cc1
IC50 (THP-1; cell growth or viability): > 25 µM

C/C=C/CNC(=N)NCCCCCCCCN1CCCc2ccccc2COc2ccccc2CNC(=N)NC1=O
CC50 (normal human dermal fibroblasts; MTT; 24 h): > 100 µg/mL

CCOC(=O)c1cc(-c2nc3ccccc3s2)c(=O)n(NS(=O)(=O)c2ccccc2)c1N
maximum non-toxic concentration (HEp-2; trypan blue; 72 h): 110 µg/mL

COc1cc(CNC(=O)C[C@H](C)CCC=C(C)C)ccc1OCc1cn(-c2cccc(Cl)c2)nn1
growth percent (MDA-MB-468 breast cancer cells; SRB; 10 µM, 48 h): 43.4%

CC(C)=CCC[C@@H](C)[C@@H]1CC[C@]2(C)C3=C(CC[C@@]12C)[C@@]1(C)CC[C@H](OC(=O)c2ccccc2)C(C)(C)[C@@H]1CC3
inhibition (HCT-15; cell growth or viability, SRB; 50 µM): 15.6%

COc1cc2nc(NC3CCN(Cc4ccc(C(N)=O)cc4)CC3)nc(Oc3c(C)cc(C#N)cc3C)c2cc1OC
CC50 (TZM-bl; cell growth or viability, XTT): 12.5 µM

CC(=O)OC[C@H]1O[C@@H](Sc2sc(C(=O)c3ccc(Br)cc3)c(N)c2-c2nc3ccccc3s2)[C@H](OC(C)=O)[C@@H](OC(C)=O)[C@@H]1OC(C)=O
maximum non-toxic concentration (HEp-2; cytotoxicity; 72 h): 100 µg/mL

COc1ccc(Cl)cc1Nc1nc2c(ccc3nc(NC(=O)C(C)(C)C)sc32)s1
cytotoxicity (FRT expressing deltaF508-CFTR; concentration not given): toxic

Some of these lines once more:
N#Cc1cccc(/C=C/C(=O)c2ccc(O)cc2)c1
cytotoxicity (patient-derived glioblastoma cells; Alamar Blue; concentration not given): active

CC(C)=CCC[C@@H](C)[C@@H]1CC[C@]2(C)C3=C(CC[C@@]12C)[C@@]1(C)CC[C@H](OC(=O)c2ccccc2)C(C)(C)[C@@H]1CC3
inhibition (HCT-15; cell growth or viability, SRB; 50 µM): 15.6%

OC[C@H]1O[C@@H](Oc2ccc(O)cc2)[C@H](O)[C@@H](O)[C@@H]1O
cytotoxicity (B16-F10; CCK-8; 200 µM, 72 h): not toxic
